Assay results pooled from the literature.
Each numbered part is a random draw from the data of one study; scales do not carry over between parts.

Sample 1
Target: Sal-like protein 4, full length isoform B (SALL4, Homo sapiens, UniProt Q9UJQ4-2, residues 1-616)
Technique: universal PBM
Form: double-stranded DNA, one strand shown
Matrix: in vitro
Tested at: not given
Notes: 8-mer, flanks averaged, mean of replicates
Reading: higher = stronger binding
Measurement: E-score
ACGAACGC: -0.131
ATCCGTTG: 0.0169
AGCCGGAG: -0.256
CGTCTCCC: -0.157
CAGGCAAA: 0.0753
AAACAGTA: 0.233
AACAGTGA: 0.0907
AAGATGTA: 0.205
AGCAGCGC: -0.343
AGAATTTG: 0.115
AGACCCAA: -0.0653
CAGAGGAC: -0.144
AAGCATCC: -0.0398
TTGGTAAA: 0.291
ACGCCAAG: -0.155
AGGCGGGG: -0.117
AGGGAAGA: 0.0103
AAACAGAT: 0.157
AATGCACT: 0.192
AGAGGTTG: -0.0617
TGGATACA: 0.119
ACGCCTGC: -0.335
AGGCTCTC: -0.192
ATTCGAAC: 0.152
GCTCAAAA: -0.00514

Sample 2
Target: Centromere-binding protein 1, full length, N-terminal tag (CBF1, Saccharomyces cerevisiae, UniProt P17106, residues 1-351)
Sequence of UniProt P17106 (whole entry, looked up): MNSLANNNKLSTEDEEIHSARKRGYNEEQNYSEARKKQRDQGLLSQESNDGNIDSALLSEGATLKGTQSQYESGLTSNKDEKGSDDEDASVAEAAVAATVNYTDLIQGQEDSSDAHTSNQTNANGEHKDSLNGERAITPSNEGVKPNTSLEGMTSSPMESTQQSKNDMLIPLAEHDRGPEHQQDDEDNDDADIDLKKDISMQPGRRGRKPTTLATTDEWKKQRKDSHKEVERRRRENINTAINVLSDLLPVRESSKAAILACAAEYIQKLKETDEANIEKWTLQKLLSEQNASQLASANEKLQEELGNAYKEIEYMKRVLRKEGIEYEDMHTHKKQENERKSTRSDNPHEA
Technique: protein-binding microarray
Form: double-stranded DNA, one strand shown
Matrix: in vitro
Tested at: 0.8 µM
Notes: whole 60-bp probe, no competitor
Reading: higher = stronger binding
Measurement: fluorescence intensity
Shared flanks, not repeated: … GTCTTGATTCGCTTGACGCTGCTG
CTAATCTCACGTATTCACGTAATATTTGATTTTTTC: 499 a.u.
CCTAACTACTATAGGCACGCCTAATAGCTTCGTACA: 482 a.u.
CTACACTCTCACTATCACACCTACAATCAAATTTTC: 566 a.u.
GAATTCTCGCCATAATCGCTGATGTCAAAAATTTAG: 539 a.u.
TGTACGAAGCTATGTGATCTGCTTATAGTAGTTAGG: 538 a.u.
CTAACGAACGTTCACCAGACATTTGGAGGCAGCTTC: 496 a.u.
CTACTATCGCTGTTATACATGATGTCCCCAAAGTTC: 540 a.u.
CTACATGTTACTACTCACCTGCTCTCACCGACTTTC: 579 a.u.
GAAGACAAAGCTGCTGTGGTGGTGTTTTGTTAATAG: 521 a.u.
GAACGTTCATTGAAGGTGATGGTATCGGACCTGTAG: 479 a.u.
GAATTAAGGTTGTCTGTCGTGATTAACGGAGCCTAG: 537 a.u.
TGTACGAAGCTATATCACGCATTTATAGTAGTTAGG: 582 a.u.
CTAACCAAAATAGACATCAGCTTTATCATATGTTTC: 541 a.u.
GAATGAAAGTTCGGTTACATGATGTGCGGCAAATAG: 574 a.u.
CTAATATATATACGTGGTGAAATGAAATGAAAATTC: 539 a.u.
CTAATAACGCCACAGAACGTGATCTGACTATTGTTC: 2230 a.u.
GAATGGGGACGTCATCACCCCCAAAGCACCTCATAG: 611 a.u.
CTACTGTAAATGCCGCAGATCACGTGGTAAAGATTC: 17100 a.u.
CTATGTTGGCTCACATACGTGCTCTTCGTATTTTTC: 490 a.u.
GAAATTTTCCAGCCACACGTGAAGTAAGCTGCATAG: 1820 a.u.
GAATTTTCAATAACGCACATGGTGGTGTACGGGTAG: 615 a.u.
GAAGATAGTTTTTTTATCGTGATGAAGTGTTGGTAG: 574 a.u.

Sample 3
Target: RNA binding protein fox-1 homolog 2, RRM domain, GST-SBP tag (RBFOX2, Homo sapiens, UniProt O43251-10, residues 100-194)
Technique: RNA Bind-n-Seq
Form: RNA
Matrix: in vitro
Tested at: 365 nM
Notes: natural RNA segment, single round, ends assumed
Relative to: no-protein control
Reading: higher = stronger binding
Measurement: RBNS enrichment (R)
Shared flanks, not repeated: GGGAGUUCUACAGUCCGACGAUC … UGGAAUUCUCGGGUGCCAA
Construct (chain): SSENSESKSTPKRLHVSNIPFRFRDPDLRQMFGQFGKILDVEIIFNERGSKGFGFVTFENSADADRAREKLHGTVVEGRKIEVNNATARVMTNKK
AACUACUAGUUAACAUCAUGCUUGAUCAACAUUUGCUCCUAGUUAUCACCAUUAAAUUAAGACCUUAAUGGUAAACUGAGGUUACUGAUGCAUCAUCACAUUUAAGUAAA: 0.522
GCCUCAUUUAUCUACAUAACAUUAUUAACUAGAACAUAAUGCUUUCAAAGUUUAAGUUAAUGUUAUAUAUUAUGUAUAAAUAUAUAUAUUCAUAAUGAGAUAUAUGUAAU: 0.772
ACACCUUCCAAACAGUGGCAGGGGCCACAGUGGCAGACAGGGUAGAGUACCCCAGGCAGUUUCUCAGCCUCGUCCGUUGUGUGGAGGGAAUACUGAAUUCAGUUAUCUCA: 0.355
GUGUGUGAUUUAGUGACUGAGCCUGCCCUUCUGUUUGUCAGUUACGUUUCUACCCUUCAAUUAGCUGCACUGUUUUCUAAUGUGCUGUAGAGUUUGGAAAUAAUUUAUGC: 1.53
GUAAGUCUUGUAAGUCUAAUGUGGCUAUCCUACUCUUUUGGGCAAUGCAUGUAUUAUGCAUUGGAAAGGUAUUUUUUUUAAGUUCUGUUGGCUAGCUAUGGUUUUCAGUA: 2.01
CCAGUAGACACAAGCAAGAAGACCACACUUCCCCCCGACACAGGAAAGCUGAGACAUUGUCCCCAACUCUUCUUGAUGUAUUUAUUAAUUUAGAGUUUUACCAGCUAUUU: 0.544
CUGAUUGAAGUCUGUUUUGCUGUGUCUGGUUAUGUUGUCUGCACUUUUAUGAAAUCACUACAAUAGAUCUACGUUGGAAAUAACUAUCAAUUUGUAAAGAAAUUUUUAUU: 1.26
UAUAAAAAUAUUUAUCUUAGAAUUUGAGAUGUUCAUAGCAUGUUUUAUUACAUUGAAGAAACUAAAACAUAAAUGAAAAGAAACACUAGGUUCCUGCACUUUUUGGUAAC: 44
GGGAACAUUAUGUAUAUUGACCUUAAACAUAGGUGUCCUAUAUUUGGAUUGUGACUUGUAGACUCAAGCUAACCUUACUGCCUCUUUUUCACACUUGUUGAAAAGUCUGU: 0.505
UGUGAUUUCAUAGCGAGUUUUCUGACCAGCUUUUGCGGAGAUUUUGAACAGAACUGCUAUUUCCUCUAAUGAAGAAUUCUGUUUAGCUGUGGGUGUGCCGGGUGGGGUGU: 1.3
UUAAUCGGUAAUCUGCUGGCUUGUUUGUUAACCAGAACGAUGAAUUUAUCAGUGAUUUGUAAGUUUCAUCAAGUGAUUUCUUCGACAAGAUGAACCAAAGGAUUAGCCUC: 0.804
AAAAUGAAGAAAAUCAACAAGGACCGAGCAAAAGACGAGUGAGCCUUUUAGGGGCUCAUUUAAAAAGAGAGCAAGCUAGAAAGAAAAAGAAAGGACUGUCCGUCUCCCUC: 0.463

Sample 4
Target: RING finger protein unkempt homolog, zinc fingers 1-6, GST-SBP tag (UNK, Homo sapiens, UniProt Q9C0B0, residues 30-357)
Sequence of UniProt Q9C0B0 (30-357, looked up): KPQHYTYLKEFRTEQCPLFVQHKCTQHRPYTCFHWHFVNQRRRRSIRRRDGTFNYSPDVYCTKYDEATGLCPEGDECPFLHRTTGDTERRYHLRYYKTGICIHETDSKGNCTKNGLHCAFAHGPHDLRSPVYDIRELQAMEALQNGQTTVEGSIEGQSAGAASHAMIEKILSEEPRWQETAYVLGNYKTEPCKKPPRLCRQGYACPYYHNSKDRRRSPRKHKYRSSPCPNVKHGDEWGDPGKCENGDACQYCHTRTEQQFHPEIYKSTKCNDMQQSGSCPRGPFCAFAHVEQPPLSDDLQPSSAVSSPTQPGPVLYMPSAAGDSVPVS
Technique: RNA Bind-n-Seq
Form: RNA
Matrix: in vitro
Tested at: not given
Notes: RNA with constant flanks, human and mouse sites, ends assumed
Relative to: input RNA pool
Reading: higher = stronger binding
Measurement: bound/input enrichment
Shared flanks, not repeated: GGGAGUUCUACAGUCCGACGAUC … CAACAGAGGAUUGAGCAUCA
UCUGUGUUUAUCAUUUUCUUCCAAGGCGAUCAGCUGAAAAACAGAGUCAAGAAAAUCUGUGAAGGGUUCCGAGCCUCACUCUAUCCCUGUCCUGAGACACCACAGGAGAGGAAGGAAAUG: 0.146 ratio
UUUAAAACAGGCCUAAAGGCUUUGAUGACAGUUGGAAAAGAGCCAUUUCCCACCAUUUAUGUGGACUCACAAAAGGAAAAUGAGAGAUGGGAUGUUAUUUCUAAGUCACAGAUGAAGAAC: 0.143 ratio
ACAGGGUCAGAUGAUUACACAAAUUUGGUUGGAGCAUUUGUAUGCCAGUCAACUAUUAUUCCUUCUGAAAGUAAGGGCUUCCGGGCAGCCCUGUCGUCACAGUCUAUCAUUCUGGCAGAU: 0.248 ratio
UUGAAACUUUCUCCAAUUAAAUAUGGCUACCAGCCCCGCAGGAACUUUUGGCCAGCAAGGUUAGCUGCAAGACUCUUAAAACUUCGAUAUAUCAUACUGGGAUCUGCUGUUGGAGGUGGC: 0.746 ratio
GAUUAUUUAUUCAAGUUACUUCUGAUUGGCGACUCAGGGGUUGGAAAGUCUUGCCUUCUUCUUAGGUUUGCAUGGGACACAGCAGGCCAGGAAAGAUUUCGAACAAUCACCUCCAGUUAU: 0.55 ratio
UGGAUCGAGGGUGAUGAGCUGCACCUGGAGAUGAGAGUGGAAGGUGUGGUCUGCAAGCAAGUAUUCAAGAAGGUGCAGUGAGGCCCAGGCAGACAACCUUGUCCCAAGGAAUCAGCAGGA: 0.124 ratio
CAGCCAGGGAUUUUUGGGUUUUUUGUUUUGGGUUGAGUCUGGGUGUUAUUUUUGUUUGUUUUAGGCAUAUAAUUCCCGAUGUAAUUUGAUUUAAAAGUAUAACUGACUUGCUUUUAAAUC: 0.533 ratio
CUCAGGUUAGAACAAAAAUGUCAUAAAGGGCACUAAAAGUAACAUUUGGGUUUCACUCCAUAUCUAGAAGAAUUUAGCUCACAAAACAAUUUUUGUGUGUUUUGAGUAACUGAUGCAUAA: 5.21 ratio
GUAUGCCAGGGAACACACAUUCUCUUUCGAGAAUUCAGCUUCGUCCAAGCCACCCCCCACAAUAGGGUAUCAUUUUUACGGGCCUUCUGGAGAUGCUUCCGAACUGUGGGCAAAAAUGGC: 1.32 ratio
CCAGAUGGGACUAGCAGAUUUACCUGCAAAGGAAAGUCUGUUUUUCACUUCAUGGGGACUAGCACAUUUUCCGAGUACACAGUUGUGGCUGACAUCUCUGUUGCUAAAAUCGAUCCUUCG: 0.451 ratio
AGGUUUCAGGUACGUUCACCAACUUUCUUUCAAAAAUCCCGGGACCAGCAUUGGUACAUUACUCAGUUGGAAGCUGCACAGACUAGUUAUAUCCAACAAAUAAACAACCUUAAAGAGAGA: 0.715 ratio

Some of these lines once more (sample 4):
UUUAAAACAGGCCUAAAGGCUUUGAUGACAGUUGGAAAAGAGCCAUUUCCCACCAUUUAUGUGGACUCACAAAAGGAAAAUGAGAGAUGGGAUGUUAUUUCUAAGUCACAGAUGAAGAAC: 0.143 ratio
GUAUGCCAGGGAACACACAUUCUCUUUCGAGAAUUCAGCUUCGUCCAAGCCACCCCCCACAAUAGGGUAUCAUUUUUACGGGCCUUCUGGAGAUGCUUCCGAACUGUGGGCAAAAAUGGC: 1.32 ratio
UUGAAACUUUCUCCAAUUAAAUAUGGCUACCAGCCCCGCAGGAACUUUUGGCCAGCAAGGUUAGCUGCAAGACUCUUAAAACUUCGAUAUAUCAUACUGGGAUCUGCUGUUGGAGGUGGC: 0.746 ratio
UGGAUCGAGGGUGAUGAGCUGCACCUGGAGAUGAGAGUGGAAGGUGUGGUCUGCAAGCAAGUAUUCAAGAAGGUGCAGUGAGGCCCAGGCAGACAACCUUGUCCCAAGGAAUCAGCAGGA: 0.124 ratio
GAUUAUUUAUUCAAGUUACUUCUGAUUGGCGACUCAGGGGUUGGAAAGUCUUGCCUUCUUCUUAGGUUUGCAUGGGACACAGCAGGCCAGGAAAGAUUUCGAACAAUCACCUCCAGUUAU: 0.55 ratio
CUCAGGUUAGAACAAAAAUGUCAUAAAGGGCACUAAAAGUAACAUUUGGGUUUCACUCCAUAUCUAGAAGAAUUUAGCUCACAAAACAAUUUUUGUGUGUUUUGAGUAACUGAUGCAUAA: 5.21 ratio
ACAGGGUCAGAUGAUUACACAAAUUUGGUUGGAGCAUUUGUAUGCCAGUCAACUAUUAUUCCUUCUGAAAGUAAGGGCUUCCGGGCAGCCCUGUCGUCACAGUCUAUCAUUCUGGCAGAU: 0.248 ratio
CCAGAUGGGACUAGCAGAUUUACCUGCAAAGGAAAGUCUGUUUUUCACUUCAUGGGGACUAGCACAUUUUCCGAGUACACAGUUGUGGCUGACAUCUCUGUUGCUAAAAUCGAUCCUUCG: 0.451 ratio
CAGCCAGGGAUUUUUGGGUUUUUUGUUUUGGGUUGAGUCUGGGUGUUAUUUUUGUUUGUUUUAGGCAUAUAAUUCCCGAUGUAAUUUGAUUUAAAAGUAUAACUGACUUGCUUUUAAAUC: 0.533 ratio
AGGUUUCAGGUACGUUCACCAACUUUCUUUCAAAAAUCCCGGGACCAGCAUUGGUACAUUACUCAGUUGGAAGCUGCACAGACUAGUUAUAUCCAACAAAUAAACAACCUUAAAGAGAGA: 0.715 ratio
